Published values collected from several papers.
A part holds a random share of what one study measured.

Block 1 — method: RNA Bind-n-Seq; form: RNA; sample: in vitro; concentration: 365 nM; baseline: no-protein control; reading: higher = stronger binding
Target: RNA binding protein fox-1 homolog 2, RRM domain, GST-SBP tag (RBFOX2, Homo sapiens, UniProt O43251-10, residues 100-194)
Notes: natural RNA segment, single round, ends assumed
Shared flanks, not repeated: GGGAGUUCUACAGUCCGACGAUC … UGGAAUUCUCGGGUGCCAA
Residues (chain): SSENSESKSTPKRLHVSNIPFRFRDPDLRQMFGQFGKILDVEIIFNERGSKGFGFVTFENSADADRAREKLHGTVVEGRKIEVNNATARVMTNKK
Oligonucleotide	RBNS enrichment (R)
UCUUCCCCAGCACAGGGCAGACAGUGCUCACAAACAUUUGCCACUGGCCAUUGUCUCUGGAUCCCCUCAGAAAGCUGCCUCCCCUAGGCAGGUGCCUUUUGGACAGUUGU	0.267
GCGGUUACGCACAGAGGCAAGCAGCUAGAGUCCGGGAUCCCCAGCCUACUGCCUCUCCAGCACUUCUCUCUUCAAGCGGCGACCCCCUACCCUCCCAGCGAGUUGCGCUG	0.516
UUUUAAAUACAUUUCAAUAAUUUUAACAAAUUUGCAUUUUUAUUGAGUUGCUGACUGAAUCUAUCUUAUACUGUGCUUCUGCAACAACAAAAAUUAUGCAGAAAAAUUCA	0.739
UUUCUUGUGUCUUGUCUGUCAGAUGGCAGGAGGCCUGUAUCAGUAAAUUUGAGGAAAAUGUUCUCUCCUGGGCCAGCCUCACAGCUUGCGUUGGGUGUGUUGGAAUUGUU	0.517
UUUAUUGUUUUUACUUUGACUGGAAUGUUUAUUGUGAACUGUAUUUAUUUUUAUACUUUGAUUUUCACUAGUUUUGCUUUUAUGUAAAAGUCAAAAUAAACUUUUCAUCC	0.604
AUUAUCGCGAGUGGUUGACCUUACACUUACUCCUUAAAUAGCAGUGAGUAAUGCAUUUGAGCUGUCCCAGGCUCUGUCUCCUCAGCUCAUUUCCUACUCUUUUUCUCUAU	0.228
AUACAUCACUUCCUGUUUUAUGCAGCUCAAAAAACAUAGACUGAAGAUUUAUUUUUUAAUAUGUUGACUUUGUUUCUCAGCAAAGCAUUGGUCAUGUGUGUAUUUUUCCA	0.283
AAAUGCGUGCACUUUCAGGUCAGUACUGGGGACCAAGUACCCUCUGGUCUUUUGUGAAUGGAUGGUUUUGUUUCCUAUGGGAAUUUUGGCAAAGGUUUUCUGGAAAGAAC	0.88
AGGGCCACGGCCUUGGCCUGGGCCACCGUGACAUUGGAAGAGCCUGUGUGAGAACUUACUCGAAGUUCACAGUCUAGGAGUGGAGGGGAGGAGACUGUAGAGUUUUGGGG	1.26
ACGGCUGAGCGCAGACGGCUUGUUUUAAAAAGAUGAUGAACAUGACAGUAUUUUGUUUUGCUUUGAUUUGGGGGGGAAGGGUUCAUCUUGCUUUUGGAGGUUGUUUUGGG	1.27
AUUUUAGUAGAGAUGAAGUGUCACUAUGUUACCAAGGCUGGUCUCAAACUCCUAAACUCAGAUGAUCCUCCUGCCUCGGCCUCCCAAAGUGCUGGAAUUAGCCUGGCCAA	0.567
AGAAUCCGCAUGUUUCCCCAGUGAUUACACUCCACUGCCACCGUGGUGCCUGGCUUUAACUCCCACCCCUGCUAUGACUCCUCUCUGCAGAGACGCGACUGGCGGCUCCA	4.62

Block 2 — method: protein-binding microarray; form: double-stranded DNA, one strand shown; sample: in vitro; concentration: 2540 nM top; notes: 60-bp whole probe; together with: salmon DNA 0.4 mg/ml; baseline: random background probes; reading: higher = stronger binding; shared flanks, not repeated: GCCTAGCAC … GTCTTGATTCGCTTGACGCTGCTG
Target: Interferon regulatory factor 3, full length, phosphomimetic (IRF3, Homo sapiens, UniProt Q14653, residues 1-427, S386D/S396D/S398D/S402D/T404D/S405D)
UniProt Q14653, sequence (whole entry, unmodified, looked up): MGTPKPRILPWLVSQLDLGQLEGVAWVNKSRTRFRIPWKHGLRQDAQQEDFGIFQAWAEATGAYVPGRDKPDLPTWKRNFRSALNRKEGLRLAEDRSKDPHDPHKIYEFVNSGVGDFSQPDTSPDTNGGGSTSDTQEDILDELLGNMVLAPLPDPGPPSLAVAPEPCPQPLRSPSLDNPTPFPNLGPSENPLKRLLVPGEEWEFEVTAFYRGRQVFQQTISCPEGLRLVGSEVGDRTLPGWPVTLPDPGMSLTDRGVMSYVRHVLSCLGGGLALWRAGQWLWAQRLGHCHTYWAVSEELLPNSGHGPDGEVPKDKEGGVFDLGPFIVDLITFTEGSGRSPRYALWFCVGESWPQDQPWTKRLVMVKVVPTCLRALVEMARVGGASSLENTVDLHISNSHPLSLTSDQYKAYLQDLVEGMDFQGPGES
Oligonucleotide	fitted relative affinity [z-score]
TGAAATTTTAATAACACAGAGTGCTAG	-0.0662
CACGGTTTCGGGTTTCGGGACGTGCTA	5.34
TTAGGTTTCCCTATCCTTTAGTGCTAG	7.14
GACGGTTTCCTCTTCCTGACGTGCTAG	5.29
TTAGGACTAGACTTTCGGTTAGTGCTA	1.26
TCAGCTTTCCTTTATGTACTGTGCTAG	4.82
TTAGTTTTCGGTTTCGGTTAGTGCTAG	9.44
GACGGTCACCTACTGCTGACGTGCTAG	0.132
GACGGACTGCTAATGCTGACGTGCTAG	-0.681
GACGGCTTCGACTTTCGGGACGTGCTA	-0.166
GTGGCTCACACCTGTCATCCCGTGCTA	-0.687
GCAGGGCAGGCAGGCTGAGGGTGCTAG	-1.62
TCATGACTCTGCCTCTAACTGTGCTAG	-0.705
GGGTCTTCAGGTTCTCCCCCAGTGCTA	-0.494
TCACATTTCCAATTACCACTGTGCTAG	3.21
TTAGGTTCCGGTTTCGGATAGTGCTAG	7.5
TCATTTTTGGAATGTCTTACTGTGCTA	1.53
TTAGATTTCAGTTTCGCTTAGTGCTAG	5.42
GAATGTAACTCCTATCCAAGTGTGCTA	0.367
GTCGGTCTCGGTATCGGGACGTGCTAG	2.81
GGCTGTTTGGTTCTGATCCTGTGCTAG	0.38
GACGGTTTCCTTTCCCTGCCGTGCTAG	10.1
TTAGGTATCGTTCTCCTTTAGTGCTAG	4.49
GACGGTATGGGTCTCGGGACGTGCTAG	-0.482
AGATGCCAAGAGGCATGATGGTGCTAG	-0.535

Block 3 — method: competition protein-binding microarray; form: double-stranded DNA, one strand shown; sample: in vitro; concentration: 2 µM; together with: Pho4 competitor, 0.05 µM; reading: higher = stronger binding; shared flanks, not repeated: … GTCTTGATTCGCTTGACGCTGCTG
Target: Centromere-binding protein 1, full length, His-tagged (CBF1, Saccharomyces cerevisiae, UniProt P17106, residues 1-351)
UniProt P17106, sequence (whole entry, looked up): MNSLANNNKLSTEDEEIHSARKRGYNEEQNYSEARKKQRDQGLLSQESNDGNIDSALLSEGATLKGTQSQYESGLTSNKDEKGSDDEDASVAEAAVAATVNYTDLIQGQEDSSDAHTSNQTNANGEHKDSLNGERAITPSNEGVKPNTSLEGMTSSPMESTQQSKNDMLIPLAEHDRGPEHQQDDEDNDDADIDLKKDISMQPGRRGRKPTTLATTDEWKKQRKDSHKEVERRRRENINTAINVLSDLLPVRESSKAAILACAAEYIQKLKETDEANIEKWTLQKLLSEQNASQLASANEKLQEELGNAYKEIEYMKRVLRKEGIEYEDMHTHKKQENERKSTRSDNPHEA
Notes: whole 60-bp probe, lowest competitor level
Oligonucleotide	fluorescence intensity [a.u.]
CTTCTGTAAATTTGCCCCGTGGGTGGACGCGCCCCG	100
CTAACGAAGGTTTGGCGCGTGGGTGACAAGCCAAGT	72.2
CTTTCCCGATCTTTTCACGTGGAATTAGCACATTTG	607
ATATTAGCTGAAAACCACATGGACGCAGCATTCAGT	80.6
CTAACGAAGGTTTGTCACCAAACTTACAAGCCAAGT	76.2
AACGAAGAAAACGGCCACGTTAAACACTTTGTTAGG	96.6
CATACCCAACCTTGCCTGGTGGGTGAAGATATTTGT	64.6
CGAGGACGCCTGCTCTTTCACTTTGTATGGTGATGG	63.7
CGTCCTAGTGATTGTCCTGTGGGTGCCATGAGGAAG	84.9
AAAGTACACAGGGTCCATGTGCTACACATACGAAGA	93.9
CAGGGCATCTCGAGCATCGTGGAGGAGATCCCTGTC	47.6
AGTTAGAGGAAAAAGCACGCAAAAAGGGCACACAGG	79.2
CATACCCAACCTTGTCCCGTGGGTGAAGATATTTGT	117
TTATATCCGACGTCCCACGTGTCGGCGAAGCTCGGA	643
CATACCCAACCTTTTCACGTGGATTAAGATATTTGT	784
ATGCTTTAGTCTGGACTCGTGATGGTTCAACGATTT	256
CGGGGTTAAGTTTGAGCGGTGGGTGGCTTGCAGCAG	54.1
AAAGCGGTAATTTGCCACGTGTTTTCACATATCTAT	1430
TTTTTTGCGTCCTACAGCGTGATGGAAATTTCGCCT	164
CGGGGTTAAGTTTGTCACAGGACTTGCTTGCAGCAG	101
CTTTCCCGATCTTTTCACGTGCCATTAGCACATTTG	1270
CGGGGTTAAGTTTGATTTGTGGGTGGCTTGCAGCAG	68
ATACTCACAATAATACATGTGTCTTAGAACCTCAGT	129
AACAAGTATTGAATGCACACGCAAATAGCTTAGGCC	79.8
AATAAGTTCATCGACCACGCACACTTCACCAAGTTA	82.8

Block 4 — method: protein binding microarray; form: double-stranded DNA, one strand shown; sample: in vitro; concentration: not given; baseline: not given; reading: higher = stronger binding
Target: Histone acetyltransferase KAT6A, both winged helices, GST fusion (KAT6A, Homo sapiens, UniProt Q92794, residues 1-181)
Notes: 8-mer, flanks averaged, mean of 2 arrays, mostly near background
Target sequence (chain): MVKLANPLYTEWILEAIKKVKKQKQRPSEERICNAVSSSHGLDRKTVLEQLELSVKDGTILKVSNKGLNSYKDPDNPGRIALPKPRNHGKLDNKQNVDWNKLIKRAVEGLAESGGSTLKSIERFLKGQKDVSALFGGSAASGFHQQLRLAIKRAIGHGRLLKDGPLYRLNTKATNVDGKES
Oligonucleotide	E-score
TAATGAGA	-0.0911
TATTTTGA	-0.208
AAAACGAC	-0.0399
GAAGCTGA	-0.0331
TACTGCAA	-0.226
CTTAGGAA	-0.207
CGTATACG	0.131
CTTATAGC	-0.0493
GCATCACA	0.0431
GTACCAAA	-0.089
AGTACATC	-0.058
AATATACT	-0.163
GACTGCCC	0.102
GCAAATCA	0.00542
ACAGTCAA	-0.183
GGGCAAAC	-0.0296

Excerpt of the above (block 2):
Oligonucleotide	fitted relative affinity [z-score]
GCAGGGCAGGCAGGCTGAGGGTGCTAG	-1.62
TCATTTTTGGAATGTCTTACTGTGCTA	1.53
GAATGTAACTCCTATCCAAGTGTGCTA	0.367
GGGTCTTCAGGTTCTCCCCCAGTGCTA	-0.494
TTAGGTTCCGGTTTCGGATAGTGCTAG	7.5
TTAGATTTCAGTTTCGCTTAGTGCTAG	5.42
